{"data": "Measured values collected from several papers", "note": "Each numbered part is a random draw from the data of one study; scales do not carry over between parts. Substitutions count along the parent as printed."}
{"data": "Sample 1", "target": "CCNB3, cyclin fold, Cln2 fusion (human)", "method": "yeast growth competition, sequencing", "matrix": "yeast", "notes": "weak parent motif", "baseline": "not given", "direction": "higher = stronger binding", "parent": "CDKN1B docking peptide (human); PSACRNLFGPVDH; partner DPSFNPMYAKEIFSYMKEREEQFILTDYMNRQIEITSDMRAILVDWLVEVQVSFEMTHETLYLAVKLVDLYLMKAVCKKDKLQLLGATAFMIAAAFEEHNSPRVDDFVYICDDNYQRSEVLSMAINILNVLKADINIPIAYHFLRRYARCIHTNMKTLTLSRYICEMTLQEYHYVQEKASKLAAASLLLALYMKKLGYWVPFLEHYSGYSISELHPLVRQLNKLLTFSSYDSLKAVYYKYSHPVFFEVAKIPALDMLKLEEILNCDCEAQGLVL"}
{"Substitution": "PSACRCLFGPVDH [N6C]", "normalised enrichment score": 0.549}
{"Substitution": "PSACRNLFFPVDH [G9F]", "normalised enrichment score": 0.45}
{"Substitution": "PSACRNQFGPVDH [L7Q]", "normalised enrichment score": 0.131}
{"Substitution": "PSACRNLFGPVIH [D12I]", "normalised enrichment score": 0.14}
{"Substitution": "PSACPNLFGPVDH [R5P]", "normalised enrichment score": 0.134}
{"Substitution": "PSACRNLVGPVDH [F8V]", "normalised enrichment score": -0.403}
{"Substitution": "PSACRNGFGPVDH [L7G]", "normalised enrichment score": 0.331}
{"Substitution": "PSACRNLFGPVRH [D12R]", "normalised enrichment score": 0.251}
{"Substitution": "PSACRNLFGPCDH [V11C]", "normalised enrichment score": 0.428}
{"Substitution": "PSACRNLGGPVDH [F8G]", "normalised enrichment score": -0.204}
{"Substitution": "PSACRNRFGPVDH [L7R]", "normalised enrichment score": 0.08}
{"Substitution": "PSACRNLFKPVDH [G9K]", "normalised enrichment score": 0.826}
{"Substitution": "HSACRNLFGPVDH [P1H]", "normalised enrichment score": 0.391}
{"Substitution": "PSACRNTFGPVDH [L7T]", "normalised enrichment score": -0.0893}
{"Substitution": "PSACRNFFGPVDH [L7F]", "normalised enrichment score": 0.446}
{"Substitution": "PIACRNLFGPVDH [S2I]", "normalised enrichment score": 0.317}
{"Substitution": "PSACRNLFGPVDC [H13C]", "normalised enrichment score": 0.358}
{"Substitution": "PSACRNLFGKVDH [P10K]", "normalised enrichment score": 0.121}
{"Substitution": "PSACRNLFIPVDH [G9I]", "normalised enrichment score": -0.000411}
{"Substitution": "SSACRNLFGPVDH [P1S]", "normalised enrichment score": 0.288}
{"data": "Sample 2", "target": "Interferon regulatory factor 7, full length, phosphomimetic (IRF7, Homo sapiens, UniProt Q92985, residues 1-503, S101K/S471D/S472D/S475D/S476D/S477D/S483D/S484D/S487D)", "method": "protein-binding microarray", "molecule type": "double-stranded DNA, one strand shown", "matrix": "in vitro", "concentration": "250 nM", "notes": "60-bp whole probe", "with": "salmon DNA 0.4 mg/ml", "baseline": "random background probes", "direction": "higher = stronger binding", "constant ends, left off below": "GCCTAGCAC … GTCTTGATTCGCTTGACGCTGCTG", "Construct (chain)": "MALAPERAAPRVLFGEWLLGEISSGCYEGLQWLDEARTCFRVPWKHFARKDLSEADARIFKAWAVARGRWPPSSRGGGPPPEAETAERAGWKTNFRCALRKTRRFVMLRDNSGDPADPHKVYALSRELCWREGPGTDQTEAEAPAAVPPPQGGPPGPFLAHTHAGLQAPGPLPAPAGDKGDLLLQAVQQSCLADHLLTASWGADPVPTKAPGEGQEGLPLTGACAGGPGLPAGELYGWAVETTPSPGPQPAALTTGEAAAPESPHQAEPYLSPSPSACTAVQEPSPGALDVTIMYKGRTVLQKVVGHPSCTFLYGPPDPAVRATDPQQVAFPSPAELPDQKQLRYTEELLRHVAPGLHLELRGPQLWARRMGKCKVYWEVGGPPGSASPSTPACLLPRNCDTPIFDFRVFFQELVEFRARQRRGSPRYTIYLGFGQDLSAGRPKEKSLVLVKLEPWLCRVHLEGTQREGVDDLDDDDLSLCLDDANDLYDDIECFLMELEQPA"}
{"Oligonucleotide": "CACTTTCTTTACTTCACTCTGTGCTAG", "log fluorescence [z-score]": 2}
{"Oligonucleotide": "TTAGCTATCCTACTGCTTTAGTGCTAG", "log fluorescence [z-score]": -0.213}
{"Oligonucleotide": "TGAGGTATCGACACTGGGTTAGTGCTA", "log fluorescence [z-score]": -0.8}
{"Oligonucleotide": "TTAGGCCTCCTTCTCCTTTAGTGCTAG", "log fluorescence [z-score]": 0.683}
{"Oligonucleotide": "AACGAACTGGGGTATCGAGACGTGCTA", "log fluorescence [z-score]": -0.492}
{"Oligonucleotide": "GACGGTTTCGGGTATCCGGACGTGCTA", "log fluorescence [z-score]": 7.95}
{"Oligonucleotide": "GAGTTCCTCTCTAGGCACTGGTGCTAG", "log fluorescence [z-score]": 1.3}
{"Oligonucleotide": "TTAGGGTCCGGTTTCGGTTAGTGCTAG", "log fluorescence [z-score]": 9.24}
{"Oligonucleotide": "GACGATATCAGTTTCGAGAGGTGCTAG", "log fluorescence [z-score]": 2.06}
{"Oligonucleotide": "GACGTTCTCGGTCTCGGGACGTGCTAG", "log fluorescence [z-score]": 1.16}
{"Oligonucleotide": "TTCCTTCTGCCTGTCCATTCGTGCTAG", "log fluorescence [z-score]": 0.607}
{"Oligonucleotide": "TTACGTATCGGTTTCGGTTAGTGCTAG", "log fluorescence [z-score]": 8.96}
{"Oligonucleotide": "TCAAGTCTCTGTTCTTTACTGTGCTAG", "log fluorescence [z-score]": 2.22}
{"Oligonucleotide": "GACGGTCTCCTACTGCCGACGTGCTAG", "log fluorescence [z-score]": -0.238}
{"Oligonucleotide": "AGACTTTTTTCAGACCTGTCGTGCTAG", "log fluorescence [z-score]": 0.337}
{"Oligonucleotide": "AACTGCATCCCAGGAGCTGGGTGCTAG", "log fluorescence [z-score]": 0.0615}
{"Oligonucleotide": "GACGATCTCAGTCTTGAGACGTGCTAG", "log fluorescence [z-score]": -0.413}
{"Oligonucleotide": "GACGTACTGGGTATCGGGACGTGCTAG", "log fluorescence [z-score]": -0.169}
{"Oligonucleotide": "GTAGAACTGAGTATCGATTAGTGCTAG", "log fluorescence [z-score]": 0.379}
{"Oligonucleotide": "AGTTTTTACTTTCTGAATGCGTGCTAG", "log fluorescence [z-score]": 1.74}
{"Oligonucleotide": "TTGGTTTTCATTATTGCTTCGTGCTAG", "log fluorescence [z-score]": 1.48}
{"Oligonucleotide": "TTAGGTTTCCATATCCTTTAGTGCTAG", "log fluorescence [z-score]": 4.72}
{"data": "Sample 3", "target": "Ras GTPase-activating protein-binding protein 1, RRM domain (G3BP1, Homo sapiens, UniProt Q13283)", "method": "RNA Bind-n-Seq", "molecule type": "RNA", "matrix": "in vitro", "concentration": "1 µM", "notes": "whole 134-nt RNA, ends assumed", "with": "150 mM KCl", "baseline": "input library", "direction": "higher = stronger binding", "sequence of UniProt Q13283 (whole entry, looked up)": "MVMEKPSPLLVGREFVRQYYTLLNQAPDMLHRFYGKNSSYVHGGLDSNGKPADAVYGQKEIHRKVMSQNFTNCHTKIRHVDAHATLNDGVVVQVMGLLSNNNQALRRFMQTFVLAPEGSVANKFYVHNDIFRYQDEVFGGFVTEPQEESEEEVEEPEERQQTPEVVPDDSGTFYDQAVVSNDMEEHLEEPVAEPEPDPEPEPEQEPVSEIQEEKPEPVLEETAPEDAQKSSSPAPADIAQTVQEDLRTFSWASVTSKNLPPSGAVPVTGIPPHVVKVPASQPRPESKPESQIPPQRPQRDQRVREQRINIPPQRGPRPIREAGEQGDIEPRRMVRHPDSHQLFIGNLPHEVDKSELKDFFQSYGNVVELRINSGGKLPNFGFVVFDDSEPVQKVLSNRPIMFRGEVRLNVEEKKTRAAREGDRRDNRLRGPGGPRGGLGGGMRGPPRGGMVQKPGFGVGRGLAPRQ"}
{"Oligonucleotide": "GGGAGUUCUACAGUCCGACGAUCUGGCCCUGGUGGCAUGCGGGGAGGAAGAGGUGGCCUCUUGGAUCGUGGUGGUCCCGGUGGAAUGUUCAGAGGUGGCCGUGGUGGAGACAGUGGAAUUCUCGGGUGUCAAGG", "log2 enrichment": 0.914}
{"Oligonucleotide": "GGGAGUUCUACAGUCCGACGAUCUGUGAGAUUAAACUUGCCCCCAAACGAUCUCGUUUGGAGACUAGAGCUGGAGAAGAAGAUGAAGGAGAAGAGGAUUCUGAUUCUGAUUAUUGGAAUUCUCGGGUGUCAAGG", "log2 enrichment": -0.203}
{"Oligonucleotide": "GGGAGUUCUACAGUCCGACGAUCCUCAAGUCCUGUGCUACACAUCGUAUGUACCGAAUCGGGAAGGGGAAGGAAGGAAAGUAUUAUGUUACGCCGUUCGGAUCUGCACUUCCAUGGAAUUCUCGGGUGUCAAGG", "log2 enrichment": -0.316}
{"Oligonucleotide": "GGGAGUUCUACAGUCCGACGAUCACCAUGCAGGUGGGCAUCUUUGGGAAGUGGGGCAAGUGGGGGAUAGGGAGGGGGGUAACACUUUGGGAACAGGUGGUCCCAGGUCGUUUCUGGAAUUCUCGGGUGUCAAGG", "log2 enrichment": -0.484}
{"Oligonucleotide": "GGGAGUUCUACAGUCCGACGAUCCUCAAGUCCUGUGCUACACAUCGUAUGUACCGAAUCGGAAAAAGGUGGAAAGGAAAGUAUUAUGUUACGCCGUUCGGAUCUGCACUUCCAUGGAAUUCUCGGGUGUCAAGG", "log2 enrichment": -0.133}
{"Oligonucleotide": "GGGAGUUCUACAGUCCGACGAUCGUCCUGUGCUACACAUCGUAUGUACCGAAUCGGGUUUUUUUGGGUUUGGGUUUUUGGGAAAGUAUUAUGUUACGCCGUUCGGAUCUGCACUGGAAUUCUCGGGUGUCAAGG", "log2 enrichment": -0.00668}
{"Oligonucleotide": "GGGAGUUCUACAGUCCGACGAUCACCAUGCAGGUGGGCAUCUUUGGGAAGUGGGGCAAGGGGGGGAUAGGGAGGGGGGUAACACUUUGAGAACAGGUGGUCCCAGGUCGUUUCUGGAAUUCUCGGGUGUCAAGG", "log2 enrichment": 0.96}
{"Oligonucleotide": "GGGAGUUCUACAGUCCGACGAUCUAGGUAUUUCUGGGAAAAGCCAGCUUCUGUUUGCACUGGUCUUCACAACUCGUUACCUGGAUCUUUUUACUUCAUUUAUUUCAUUGUAUAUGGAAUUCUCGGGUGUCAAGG", "log2 enrichment": -0.296}
{"Oligonucleotide": "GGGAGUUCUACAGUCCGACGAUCUGGCCCUGGUGGCAUGCGGGGAGGAAGAGGUGGCCUCAUGGAUCGUGGUGGUCCCGGUGGAAUGUUCAGAGGUUGCCGUGGUGGAGACAGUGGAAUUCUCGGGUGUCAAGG", "log2 enrichment": 1.45}
{"Oligonucleotide": "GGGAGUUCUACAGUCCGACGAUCCACAGACAACACGCACCCACACAGACACAGAGGGAAGGGGAAAGGAUGGGGACAGGGUGCACAGCAGGGCGGGGUAGGACCCCAGCCCCUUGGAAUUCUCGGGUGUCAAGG", "log2 enrichment": -0.17}
{"data": "Sample 4", "target": "Prothrombin, mature alpha-thrombin (F2, Homo sapiens, UniProt P00734)", "method": "aptamer microarray, sandwich", "molecule type": "DNA with 2'F-ANA", "matrix": "in vitro", "concentration": "200 nM", "notes": "whole 15-mer aptamer, many near background", "with": "Cy3 exosite-II aptamer, 400 nM", "direction": "higher = stronger binding", "oligonucleotide": "GGTTGGTGTGGTTGG"}
{"Modification": "2'F-ANA at 1 2 4 6 8 10 13 14", "mean fluorescence intensity [a.u.]": 41.9}
{"Modification": "2'F-ANA at 3 5 8 9 10 11 12 13 14", "mean fluorescence intensity [a.u.]": 54.2}
{"Modification": "2'F-ANA at 2 3 4 7 11 12 15", "mean fluorescence intensity [a.u.]": 920}
{"Modification": "2'F-ANA at 6 8 12 13 15", "mean fluorescence intensity [a.u.]": 627}
{"Modification": "2'F-ANA at 1 2 3 4 5 8 9 10 11 14", "mean fluorescence intensity [a.u.]": 63.1}
{"Modification": "2'F-ANA at 2 5 8 13 14", "mean fluorescence intensity [a.u.]": 94.4}
{"Modification": "2'F-ANA at 1 3 4 5 7 8 11 12 15", "mean fluorescence intensity [a.u.]": 95.8}
{"Modification": "2'F-ANA at 6 8 9 10 11 12 13 14 15", "mean fluorescence intensity [a.u.]": 130}
{"Modification": "2'F-ANA at 4 5 6 9 11 13 14", "mean fluorescence intensity [a.u.]": 51.2}
{"Modification": "2'F-ANA at 1 6 8 13 15", "mean fluorescence intensity [a.u.]": 141}
{"Modification": "2'F-ANA at 2 3 5 10 12", "mean fluorescence intensity [a.u.]": 61.3}
{"Modification": "2'F-ANA at 2 5 7 10 11 13 14", "mean fluorescence intensity [a.u.]": 46.3}
{"Modification": "2'F-ANA at 6 7 11 13 14 15", "mean fluorescence intensity [a.u.]": 153}
{"Modification": "2'F-ANA at 3 5 6 8 9 10 11 13 15", "mean fluorescence intensity [a.u.]": 82.9}
{"Modification": "2'F-ANA at 1 2 4 5 11 12 13 15", "mean fluorescence intensity [a.u.]": 69.3}
{"Modification": "2'F-ANA at 1 2 7 8 10 11 12 14 15", "mean fluorescence intensity [a.u.]": 48.4}
{"data": "Further values, each from its own experiment"}
{"Substance": "PhoQ, residues 284 288 289 292 302 303 TNASYF", "target": "PhoP, residues 12 14 15 18 19 NHFIF (Escherichia coli, UniProt P23836)", "assay": "Sort-seq, measured: YFP reporter", "system": "E. coli", "setting": "PhoQ-PhoP variant library, with: 10 µM Mg2+", "how to read": "baseline: high Mg2+ state, higher = stronger signaling", "endpoint": "fold induction", "result": 12.4}
{"note": "A few entries again (sample 4):"}
{"Modification": "2'F-ANA at 2 3 4 7 11 12 15", "mean fluorescence intensity [a.u.]": 920}
{"Modification": "2'F-ANA at 6 8 12 13 15", "mean fluorescence intensity [a.u.]": 627}
{"Modification": "2'F-ANA at 1 2 3 4 5 8 9 10 11 14", "mean fluorescence intensity [a.u.]": 63.1}
{"Modification": "2'F-ANA at 2 5 8 13 14", "mean fluorescence intensity [a.u.]": 94.4}
{"Modification": "2'F-ANA at 1 3 4 5 7 8 11 12 15", "mean fluorescence intensity [a.u.]": 95.8}
{"Modification": "2'F-ANA at 6 8 9 10 11 12 13 14 15", "mean fluorescence intensity [a.u.]": 130}
